Results of several laboratories.
Each numbered part is a random draw from the data of one study; scales do not carry over between parts. Changes are numbered by the printed parent chain.

Set 1
Target: ABI1, truncated, D143A, DHFR fusion (Arabidopsis thaliana)
Method: DHFR PCA, deep sequencing
Medium: yeast
Setting: methotrexate growth selection, single substitutions
Added: (+)-ABA 0.0091 µM
Baseline: wild-type fitted maximum
Reading: higher = stronger binding
Starting sequence: PYL1, truncated, DHFR fusion (Arabidopsis thaliana); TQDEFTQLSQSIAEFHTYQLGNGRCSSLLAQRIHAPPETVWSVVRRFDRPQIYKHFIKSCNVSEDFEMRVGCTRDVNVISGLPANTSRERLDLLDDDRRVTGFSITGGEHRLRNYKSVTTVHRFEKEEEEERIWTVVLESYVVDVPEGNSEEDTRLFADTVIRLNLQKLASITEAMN; partner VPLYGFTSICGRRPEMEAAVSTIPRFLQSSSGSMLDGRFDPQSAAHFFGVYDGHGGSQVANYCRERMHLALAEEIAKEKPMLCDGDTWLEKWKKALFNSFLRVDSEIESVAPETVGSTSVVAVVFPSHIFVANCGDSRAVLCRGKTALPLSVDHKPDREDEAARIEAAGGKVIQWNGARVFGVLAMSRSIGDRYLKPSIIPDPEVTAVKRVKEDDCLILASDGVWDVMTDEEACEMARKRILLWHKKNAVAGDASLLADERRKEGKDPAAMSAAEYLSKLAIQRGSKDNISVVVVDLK
Under “relative binding score”, `R113W` is recorded as -5.59%.
Under “relative binding score”, `D92G` is recorded as 2.53%.
Under “relative binding score”, `H55N` is recorded as 14.9%.
Under “relative binding score”, `E127I` is recorded as 21.6%.
Under “relative binding score”, `N61G` is recorded as 1.58%.
Under “relative binding score”, `L91E` is recorded as 1.6%.
Under “relative binding score”, `Y53C` is recorded as -5.24%.
`V142S` — result for “relative binding score”: 13.3%.
Under “relative binding score”, `F124K` is recorded as -2.41%.
`A30S` — result for “relative binding score”: 24.3%.
`A158T` — result for “relative binding score”: 6.68%.
`L94S`: “relative binding score” 1.12%.
`R74G` — result for “relative binding score”: -2.2%.
`S104Y`: “relative binding score” -0.515%.
`Q2H` — result for “relative binding score”: 33.8%.
For `V145E`, “relative binding score” read -3.95%.
Under “relative binding score”, `D3P` is recorded as 14.3%.

Set 2
Target: CCNF, cyclin fold, Cln2 fusion (human)
Method: yeast growth competition, sequencing
Medium: yeast
Setting: weak parent motif
Baseline: not given
Reading: higher = stronger binding
Starting sequence: DNAH7 docking peptide (human); HELFQRLDFDNDG
`AELFQRLDFDNDG [H1A]`: “normalised enrichment score” -0.0616.
`HELFQRLDFDADG [N11A]` — result for “normalised enrichment score”: -0.243.
Under “normalised enrichment score”, `HELFQRLAFDNDG [D8A]` is recorded as -0.102.
Under “normalised enrichment score”, `HEAFQRLDFDNDG [L3A]` is recorded as -0.337.
For `HELFQRADFDNDG [L7A]`, “normalised enrichment score” read -0.377.
`HELFQRLDFANDG [D10A]` — result for “normalised enrichment score”: -0.364.
Under “normalised enrichment score”, `HELAQRLDFDNDG [F4A]` is recorded as 0.113.

Set 3
Target: RING finger protein unkempt homolog, zinc fingers 1-6, GST-SBP tag (UNK, Homo sapiens, UniProt Q9C0B0, residues 30-357)
Method: RNA Bind-n-Seq
Molecule type: RNA
Medium: in vitro
Concentration: not given
Setting: RNA with constant flanks, human-mouse chimeric sites, ends assumed
Baseline: input RNA pool
Reading: higher = stronger binding
All sequences stand within: GGGAGUUCUACAGUCCGACGAUC … CAACAGAGGAUUGAGCAUCA
Target sequence (chain): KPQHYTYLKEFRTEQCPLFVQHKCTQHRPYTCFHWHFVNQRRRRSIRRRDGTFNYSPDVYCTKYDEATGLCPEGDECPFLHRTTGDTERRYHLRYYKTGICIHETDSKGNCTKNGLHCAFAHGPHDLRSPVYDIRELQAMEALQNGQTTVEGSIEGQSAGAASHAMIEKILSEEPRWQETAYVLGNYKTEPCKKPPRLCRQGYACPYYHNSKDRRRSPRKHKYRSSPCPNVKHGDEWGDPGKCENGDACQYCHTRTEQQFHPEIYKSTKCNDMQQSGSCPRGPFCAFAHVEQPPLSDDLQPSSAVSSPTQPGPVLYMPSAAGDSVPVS
With `GUAUACGGUUAUCGAGGAAAGGACUGUAGAGCUAAUGUAUACCUGCUUCCCACAGGGGAGAUAGUUUAUUUUAUCGCCUCAGUGGUAGUCCUGUUUAAUUAUGAGGAGAGAACUCAGCGA` the bound/input enrichment was 0.319 ratio.
`UGUGCCCCACAAGAUCCUACCUGAGUGGCAGCUGAAGUUGACUCCCUCCCCUUCCCUGAACCCCCCCCCACUGCCCCCCCAUCCCCCAGUGUCGGCUGAGAUGUUGCCUCUGCACGGUUC` has a bound/input enrichment of 1.32 ratio.
For `CGAGACAAGACAUCCAGGAACAUGCGAGGCUCCCGGAUGAAUGGACUGCCUAGCCCCACUCACAGCGCCCACUGUAGCUUCUACCGAACCAGAACCUUGCAGGCACUGAGUAAUGAGAAG`, the bound/input enrichment was 0.0793 ratio.
`GAACCUGCUCUCUCUGAUGAAGAUGAGGAAGACAAUGAUGAUGUUGAACCCAUUUCUGAAUUUCGAUUUGUGCCCAGUGAUAAGUCAGCGUUGGAGGCGAUGUUCACAGCAAUGUGUGAG` has a bound/input enrichment of 0.251 ratio.
`CUGGCCUGGCCCUCCCCAGGGGCCUCCUUUCGUAUAGUCACUGCUUCUGCAUCAGAUACUUUCAGCUGCAACUCCCUACUGGGUGGGGCACCUAUCUCAGGCAGAAGUUGGUGCCCCCCU` gave a bound/input enrichment of 0.145 ratio.
For `GUAGCUGGCCAUUAGGAAAUGCUGGUAGUGCUCCGGCCUUGCUGAUGACUUCUGAUGUCCCAGCAAAUGUUGGCAUUGUUGACUGCUGAGAAGAUACUUCUGAGGACCCACGUCUAAGGU`, the bound/input enrichment was 0.103 ratio.
For `GCUCCUCCCCGCUCUGCAGCCUGGGGACACUGGGCUGGGACCAGAAUCCAGCUUUCUUUUAAAACUCUAUAUUUUUUUUCUUUUUCUGACAUUUCAUUUUUUUUAAAUAGUGUAUUUUUU`, the bound/input enrichment was 31.2 ratio.
For `UUGCUACUGACUCCCUGGGUCAAGUUCCUGUGGGAGUCAUACAGGCAGUGUUUGGACCUUCUUAGAAACAAUUCUAGAGUAGAGCGCCUUUACCAUGAUAUCGCCCAACAAGCUUUCAAA`, the bound/input enrichment was 0.207 ratio.
For `CGCUUGGAUGAGGCGGGUGUCACAGAUGAAGUGCUGGAUUCUGCCAUGCAAGCCUUCCUUCUGGAGGUCAUUGUUAAACAUGGGGAGCCGGCACCUUAUUUAUGUAAUAAAGAUCCUUUU`, the bound/input enrichment was 0.078 ratio.
With `AUGGAGAAGGAUUCUCUGCCCCGCUUUGUGCGCUCUGAAUUUUAUAAGGAGCUAAUCAAGUAGUCAUUUAGCCAGGCUUCCAAAAGUUGCCCUGUGAGUUGAGUUACAUCCUUUGUAGCA` the bound/input enrichment was 1.18 ratio.
With `GCCACCAGAUCCCAGAAACAUGACUCUUGCUGCCUACAAAGAGAAGAUGAAGGAGCUCCCGCUGGUGUCCUUGUUCUGCUCCUGCUUCCUGGCCGAUCCCCUGAAUAAGUCGUCCUACAA` the bound/input enrichment was 0.299 ratio.

Further values, each from its own experiment
The fold induction of `PhoQ, residues 284 288 289 292 302 303 GTAMQF` is reported as 6.53 (PhoP, residues 12 14 15 18 19 STHWV (Escherichia coli, UniProt P23836); Sort-seq, measured: YFP reporter; E. coli; PhoQ-PhoP variant library, added: 10 µM Mg2+; baseline: high Mg2+ state, higher = stronger signaling).

A few entries again (set 3):
With `GUAUACGGUUAUCGAGGAAAGGACUGUAGAGCUAAUGUAUACCUGCUUCCCACAGGGGAGAUAGUUUAUUUUAUCGCCUCAGUGGUAGUCCUGUUUAAUUAUGAGGAGAGAACUCAGCGA` the bound/input enrichment was 0.319 ratio.
`CUGGCCUGGCCCUCCCCAGGGGCCUCCUUUCGUAUAGUCACUGCUUCUGCAUCAGAUACUUUCAGCUGCAACUCCCUACUGGGUGGGGCACCUAUCUCAGGCAGAAGUUGGUGCCCCCCU` gave a bound/input enrichment of 0.145 ratio.
`GAACCUGCUCUCUCUGAUGAAGAUGAGGAAGACAAUGAUGAUGUUGAACCCAUUUCUGAAUUUCGAUUUGUGCCCAGUGAUAAGUCAGCGUUGGAGGCGAUGUUCACAGCAAUGUGUGAG` has a bound/input enrichment of 0.251 ratio.
For `CGAGACAAGACAUCCAGGAACAUGCGAGGCUCCCGGAUGAAUGGACUGCCUAGCCCCACUCACAGCGCCCACUGUAGCUUCUACCGAACCAGAACCUUGCAGGCACUGAGUAAUGAGAAG`, the bound/input enrichment was 0.0793 ratio.
